# Published values collected from several papers.
# Values joined by “and” are separate records of one study, mostly repeats; a detail may differ. ± gives the spread as reported.
Compound,assay,test system,setting,scale,quantity,result
C[C@H]1C[C@H]2CSC(N)=N[C@@]2(c2nc(NC(=O)c3ccc(OC(F)F)cn3)cs2)CO1,item: Aβx-40,"healthy adults, plasma","125 mg once daily, day 14",relative to: placebo,percent change from baseline,-71.7%
COC(=O)c1sc(-c2cccs2)cc1NC(=O)/C=C/C(=O)O,ELISA,"bone marrow-derived macrophages, C57BL/6J mice","dose not given, 48 h, with: LPS 24 h",,TNF-α release,decreased
OC(CCN1CCCCC1)(c1ccccc1)C1CC2C=CC1C2 (stereo not shown),resting-state EEG,healthy elderly humans,"oral, 2 mg, eyes closed, LS mean",,EEG Beta1-power Pz-O2,4.5 µV²
CN[C@@H](C)C(=O)N[C@H]1CN(S(=O)(=O)c2cccc(S(=O)(=O)N3CC[C@H]4CC[C@@H](C(=O)NC(c5ccccc5)c5ccccc5)N4C(=O)[C@@H](NC(=O)[C@H](C)NC)C3)c2)CC[C@H]2CC[C@@H](C(=O)NC(c3ccccc3)c3ccccc3)N2C1=O,RECIST 1.1,advanced pancreatic cancer patients,"dose not given, no prior therapy, with: AG",,objective response rate,33.3%
C[C@H](Oc1ccc(Br)cc1-c1ccon1)C(=O)O,"peak grip force, handgrip dynamometry",healthy human,"200 mg, SAD",,difference from placebo,-1.05 kg
O=C(O)CNC(=O)Cc1ccccc1,,"ventricular cardiomyocytes, C57BL/6 mouse","dose not given, 0.324 s",,sarcomere length,1.72 µm
COc1cc(O)c(CC=C(C)C)c(O)c1C(=O)/C=C/c1ccc(O)cc1,,male Tac:SW conventional mice,"in high-fat diet, dose not given, 5 weeks, not statistically significant",relative to: high-fat diet alone,average body weight,decreased
CCN1/C(=C/C(C)=O)Sc2ccc(F)cc21,von Frey test,"α2B adrenoceptor knockout mice, burn injury pain, burn-injured hind paw",10 mg/kg,,paw withdrawal threshold,no effect
O=C(c1ccc(OCCN2CCCCC2)cc1)c1c(-c2ccc(O)cc2)sc2cc(O)ccc12,,"male ICR-CD1 mice, formalin test","intracerebroventricular, 100 µg/animal, 15 to 20 min",,paw licking time,0 s
O=C(O)CCc1nccc2c3ccccc3n(Cc3ccc(Br)c4ccccc34)c12,,"mouse, acute hyperuricaemia model","oral, 2 mg/kg",,serum uric acid,345 µM
OC[C@H]1O[C@@H](c2ccc(Cl)c(Cc3ccc(O[C@H]4CCOC4)cc3)c2)[C@H](O)[C@@H](O)[C@@H]1O,,Japanese type 1 diabetes patients,"25 mg, day 28, 672 h",relative to: baseline,systolic blood pressure change,3.4 mmHg
Cn1cc([C@H]2C[C@H]3CSC(N)=N[C@@]3(c3ccc(F)cc3F)CO2)cn1,item: Aβx-42,"Mus musculus wild-type, brain","subcutaneous, 50 mg/kg, 6 h",,Aβ42 level,0.23 ng/g
NC(=O)c1cnc2[nH]ccc2c1N[C@@H]1[C@@H]2CC3C[C@H]1C[C@@](O)(C3)C2,"flow cytometry, item: CD8+ effector T cells","Japanese healthy subjects, peripheral blood","oral, 10 mg twice daily, day 4",,change from baseline,0.03%
COc1ccc([C@@H](O)c2cc(-c3ncnc4cc(N5CCOCC5)ccc34)c(F)cc2Cl)nn1,RECIST version 1.1,"patients, advanced solid tumours","100 mg twice daily, with: avelumab",relative to: patients,disease control rate,2%
CCN1CCN(Cc2ccc(Nc3ncc(F)c(-c4cc(F)c5nc6n(c5c4)[C@H](C)CCC6)n3)nc2)CC1,,human advanced solid tumours,"300 mg, phase Ia monotherapy RECIST 1.1",,complete response,0%
c1ccc(-c2cc(-c3ccccc3)n(Cn3ccnc3)n2)cc1,,"rat, STZ-nicotinamide diabetic","75 mg/kg, 264 h, full-thickness excision wound",,wound size,15.3 mm
COc1ccccc1[C@H](Cn1c(=O)n(C(C)(C)C(=O)O)c(=O)c2c(C)c(-c3ncco3)sc21)OC1CCOCC1,"[1-13C]acetate infusion, isotopomer analysis","overweight or obese healthy men, plasma VLDL-TG palmitate","oral, 200 mg single dose, 5 h post-dose, with: oral fructose",,fractional hepatic DNL,5.2 % new palmitate
O=C(COc1ccc(Cl)cc1)NC12CC(c3nnc([C@H]4C[C@@H](OC(F)(F)F)C4)o3)(C1)C2,,"healthy human, PBMC","oral, 400 mg single dose, day 1, 4 h post-dose, median, with: sodium arsenite ex vivo",relative to: baseline,CHAC1 mRNA change,-59.8%
NS(=O)(=O)c1cc(C(=O)O)c(NCc2ccco2)cc1Cl,barrier function (TEER),human ileal GI microtissue EpiIntestinal-FT,,,IC15,> 100 µM
CC(=O)Oc1cc2c(s1)CCN(C(C(=O)C1CC1)c1ccccc1F)C2 (stereo not shown),"platelet aggregation, light transmittance aggregometry","human, platelet-rich plasma","dose not given, 4 to 6 h, IPA above 90 %, with: ADP 20 µM",relative to: patients,patients with IPA above threshold,4.8%
CN(C(=O)n1cnc(-c2ccc[n+]([O-])c2)c1)C1CCCCC1,,"mice, formalin paw test","0.3 mg/kg, late phase, with: anandamide 5 mg/kg i.p.",direction not given,licking time score,7
N#Cc1ccn2c(-c3ccncc3)c(-c3ccc(F)cc3)nc2c1,"kinase binding, competitor, MIB/MS competition, item: KSP1",Candida albicans cell lysate,100 nM,relative to: DMSO,log2 fold change,-0.0594
N#Cc1ccc2c(c1)[C@H]1CCCN(C(=O)c3ccc4[nH]cnc4c3)[C@H]1C2,,"T2DM patients with overweight or obesity, plasma","oral, 10 mg, day 15 (360 h), multiple dosing, mean",,"plasma 1,5-anhydroglucitol",16.5 µg/mL
N=C(N)NCCC[C@H](NC(=O)[C@H](CCCNC(=N)N)NC(=O)[C@H](CCCCN)NC(=O)[C@H](CCC(N)=O)NC(=O)[C@H](CCCCN)NC(=O)[C@H](Cc1ccc(O)cc1)NC(=O)[C@@H](N)CCCCN)C(=O)N[C@@H](CO)C(=O)N[C@@H](Cc1ccc(O)cc1)C(=O)N[C@@H](CCCCN)C(=O)O,,dentin hypersensitivity patients,"5 µg/tooth, day 36 post-study visit, two teeth per subject, unit not given",relative to: baseline,VAS change,-24.1 ± 24.4
COc1cc(Nc2ncc3c(n2)-c2ccc(Cl)cc2C(c2c(F)cccc2OC)=NC3)ccc1C(=O)O,,"mouse, OS-1 osteosarcoma xenograft","oral, 20.8 mg/kg, day 21",relative to: vehicle,relative tumour volume T/C,1.26
CCCCC1(CCCC)CN(c2ccccc2)c2cc(SC)c(OCC(=O)N[C@@H](C(=O)NCC(=O)O)c3ccccc3)cc2S(=O)(=O)C1,item: 7α-hydroxy-4-cholesten-3-one,"human, plasma","15 mg once daily, day 8",,plasma C4,69.3 ng/mL
CCO[C@H]1CCN(Cc2c(OC)cc(C)c3[nH]ccc23)[C@H](c2ccc(C(=O)O)cc2)C1,,"PNH patients, blood","oral, 25 mg then 100 mg, week 4, mean absolute change",relative to: baseline,C3d-positive type III RBCs,-0.9%
CCCC(CCC)C(=O)Oc1cccc(C(O)CCN)c1.O=CO (stereo not shown),OCT imaging,"BALB/cJ mouse, light-induced retinal damage","intraperitoneal, 10 mg/kg, 500 µm from optic nerve head, with: light 15000 lx for 8 h",,outer nuclear layer thickness,46.7 µm and 57.6 µm and 48.8 µm and 56.9 µm and 56.1 µm
CCCOc1ccc(-c2ccc(C#N)cc2)cc1,"proteomics, item: Slc38a7",rat placenta,"concentration not given, uterine perfusion, all three doses",,protein level,increased
Cn1cc(Nc2nccc(-c3ccc4c(c3)CN(C3COC3)CC[C@H]4NC(=O)c3cn(C(C)(C)C)nn3)n2)cn1,item: Pancreatic Adenocarcinoma Signaling,"splenic B cells, mouse","in vivo, 30 mg/kg, IgD-activated B cells","relative to: vehicle, positive = activation",pathway activation z-score,1.39
O=C(O)/C=C/c1nccc2c3ccccc3n(Cc3ccc(Br)cc3)c12,,"mouse, acute hyperuricaemia model, serum","oral, 2 mg/kg, individual animal data",,serum uric acid,743 µM and 965 µM and 719 µM and 990 µM
CN[C@@H]1COc2c(S(=O)(=O)NC(=O)Nc3c4c(cc5c3CCC5)CCC4)cnn2C1,item: IL-1β,"human participants, whole blood ex vivo","300 mg twice daily, multiple doses, 1 h, with: LPS/ATP",relative to: baseline,inhibition,99.4%
CN(C)C(=O)c1cc2cnc(Nc3ccc(N4CCNCC4)cn3)nc2n1C1CCCC1,"RNA-seq GSEA, item: HALLMARK_DNA_REPAIR",MB002 tumour,"concentration not given, in vivo","relative to: vehicle, direction not given",normalized enrichment score,1.81
O=C(O)/C=C/c1nccc2c3ccccc3n(Cc3ccc(Br)c4ccccc34)c12,,"mouse, acute hyperuricaemia model, serum","oral, 2 mg/kg, individual animal data",,serum uric acid,278 µM and 332 µM and 197 µM
Cc1n[nH]c2ccc(-c3cc(OC[C@@H](N)Cc4ccccc4)cnc3-c3ccoc3)cc12,"kinase binding, competitor, MIB/MS competition, item: CMK2",Candida albicans cell lysate,1 µM,relative to: DMSO,log2 fold change,0.585
Cc1ccc([C@@H]2O[C@H](CO)[C@@H](O)[C@H](O)[C@H]2O)cc1Cc1ccc(-c2ccc(F)cc2)s1,,Japanese type 2 diabetes patients,"400 mg, day 17",relative to: day 1,change in fasting plasma glucose,-60 mg/dL
CC(C)[C@H](NC(=O)[C@H](Cc1ccc(O)cc1)NC(=O)[C@H](Cc1ccc(O)cc1)NC(=O)[C@@H]1CCCN1C(=O)[C@H](CCC(=O)O)NC(=O)[C@H](CCC(=O)O)NC(=O)[C@H](Cc1c[nH]c2ccccc12)NC(=O)[C@@H]1CCCN1C(=O)[C@@H](NC(=O)[C@H](CCC(N)=O)NC(=O)c1ccc2c(c1)C(=O)OC21c2ccc(O)cc2Oc2cc(O)ccc21)C(C)C)C(=O)N[C@H](C(=O)N[C@@H](CCCCN)C(=O)N[C@@H](CCCCN)C(=O)N[C@@H](CO)C(=O)N[C@@H](CO)C(=O)NCC(=O)NCC(N)=O)C(C)C,nerve discrimination,head and neck surgery patients,500 mg,relative to: white light,surgeons rating improved,14.2%
[Cl-].[Cl-].[Pt+2].[Ru+2].c1ccc(-c2nccnc2-c2ccccn2)nc1.c1cnc2c(c1)ccc1cccnc12.c1cnc2c(c1)ccc1cccnc12,,,"concentration not given, first substitution step, with: L-methionine",,activation enthalpy,7.65 ± 0.478 kcal/mol
COc1ncnn2ccc(-c3cnc4nc(C)n(Cc5nnc([C@@H](C)F)o5)c4c3)c12,,"Homo sapiens, relapsed or refractory AML or MDS","dose not given, responding patients",,median duration of response,164 days
COc1cc2cc(-c3ccc(CC(=O)Nc4cc(C(C)(C)C(F)(F)F)no4)cn3)cnc2cc1OC,RECIST v1.1,RET-altered advanced solid tumour patients,"oral, 20 mg once daily, phase I",,objective response rate,0%
COCCOc1cnc2ccn([C@H](C)c3nnc4c(F)cc(-c5cnn(C)c5)cn34)c(=O)c2c1,,MET-amplified advanced solid tumour patients,dose not given,,objective response rate,29.6%
CNCc1cc(-c2ccccc2F)n(S(=O)(=O)c2cccnc2)c1,oesophageal lesions,rat reflux oesophagitis,"oral, single dose",,ED50,1.2 mg/kg
N#Cc1ccc2c(c1)[C@H]1CCCN(C(=O)c3ccc4[nH]cnc4c3)[C@H]1C2,,"human, Phase II trial","oral, 80 mg once daily, day 28, adjusted mean, SE",,HbA1c change from baseline,0.03%
O=C(O)CCc1nccc2c1[nH]c1ccccc12,,mouse acute hyperuricaemia model,dose not given,,serum uric acid decrease,41.7%
C[C@@H](NC(=O)N1C(=O)[C@H](Cc2ccnc(N)c2)[C@H]1C(=O)O)C1CCCCC1,,human,"iv infusion, 1.0 mg/kg/h, 24 h, unit not given",relative to: baseline,ACT AUEC,144
CC(C)C[C@H](NC(=O)[C@H](CC(C)C)NC(=O)[C@H](Cc1c[nH]c2ccccc12)NC(=O)[C@H](CCC(=O)O)NC(=O)[C@@H](NC(=O)[C@H](Cc1ccccc1)NC(=O)[C@H](CCC(=O)O)NC(=O)[C@H](CCCCNC(=O)COCCOCCNC(=O)COCCOCCNC(=O)CC[C@H](NC(=O)CCCCCCCCCCCCCCCCCCC(=O)O)C(=O)O)NC(=O)[C@H](C)NC(=O)[C@H](CCCCN)NC(=O)[C@H](CCCCN)NC(=O)[C@H](CCC(=O)O)NC(=O)[C@H](CC(=O)O)NC(=O)[C@H](CC(C)C)NC(=O)[C@H](Cc1ccc(O)cc1)NC(=O)[C@H](CCCCN)NC(=O)[C@H](CO)NC(=O)[C@H](Cc1ccc(O)cc1)NC(=O)[C@H](CC(=O)O)NC(=O)[C@H](CO)NC(=O)[C@@H](NC(=O)[C@H](Cc1ccccc1)NC(=O)[C@@H](NC(=O)CNC(=O)[C@H](CCC(N)=O)NC(=O)C(C)(C)NC(=O)[C@@H](N)Cc1c[nH]cn1)[C@@H](C)O)[C@@H](C)O)C(C)C)C(=O)N[C@@H](CCC(=O)O)C(=O)NCC(=O)NCC(=O)N1CCC[C@H]1C(=O)N[C@@H](CO)C(=O)N[C@@H](CO)C(=O)NCC(N)=O,,human,"dose not given, day 134",relative to: placebo,VAS hunger change,decreased
O=C(O)CSc1nnc(Br)n1-c1ccc(C2CC2)c2ccccc12,,"mouse, acute hyperuricaemia model",1 mg/kg,,serum uric acid,1050 ± 129 µM
CC(C)NCC(O)c1ccc(O)c(O)c1 (stereo not shown),,"ventricular cardiomyocytes, C57BL/6 mouse","dose not given, 0.096 s",,sarcomere length,1.72 µm
[Cl-].[Cl-].[Pt+2].[Ru+2].c1ccc(-c2nc3cc4ccccc4cc3nc2-c2ccccn2)nc1.c1cnc2c(c1)ccc1cccnc12.c1cnc2c(c1)ccc1cccnc12,,,"concentration not given, first substitution step, with: thiourea",,activation enthalpy,5.26 ± 0.239 kcal/mol

# Excerpt of the above:
Compound,assay,test system,setting,scale,quantity,result
CCCOc1ccc(-c2ccc(C#N)cc2)cc1,"proteomics, item: Slc38a7",rat placenta,"concentration not given, uterine perfusion, all three doses",,protein level,increased
O=C(O)CCc1nccc2c1[nH]c1ccccc12,,mouse acute hyperuricaemia model,dose not given,,serum uric acid decrease,41.7%
CC(C)C[C@H](NC(=O)[C@H](CC(C)C)NC(=O)[C@H](Cc1c[nH]c2ccccc12)NC(=O)[C@H](CCC(=O)O)NC(=O)[C@@H](NC(=O)[C@H](Cc1ccccc1)NC(=O)[C@H](CCC(=O)O)NC(=O)[C@H](CCCCNC(=O)COCCOCCNC(=O)COCCOCCNC(=O)CC[C@H](NC(=O)CCCCCCCCCCCCCCCCCCC(=O)O)C(=O)O)NC(=O)[C@H](C)NC(=O)[C@H](CCCCN)NC(=O)[C@H](CCCCN)NC(=O)[C@H](CCC(=O)O)NC(=O)[C@H](CC(=O)O)NC(=O)[C@H](CC(C)C)NC(=O)[C@H](Cc1ccc(O)cc1)NC(=O)[C@H](CCCCN)NC(=O)[C@H](CO)NC(=O)[C@H](Cc1ccc(O)cc1)NC(=O)[C@H](CC(=O)O)NC(=O)[C@H](CO)NC(=O)[C@@H](NC(=O)[C@H](Cc1ccccc1)NC(=O)[C@@H](NC(=O)CNC(=O)[C@H](CCC(N)=O)NC(=O)C(C)(C)NC(=O)[C@@H](N)Cc1c[nH]cn1)[C@@H](C)O)[C@@H](C)O)C(C)C)C(=O)N[C@@H](CCC(=O)O)C(=O)NCC(=O)NCC(=O)N1CCC[C@H]1C(=O)N[C@@H](CO)C(=O)N[C@@H](CO)C(=O)NCC(N)=O,,human,"dose not given, day 134",relative to: placebo,VAS hunger change,decreased
